Measurements collected from several papers.
Each numbered part is a random draw from the data of one study; scales do not carry over between parts.

Sample 1
Target: Sox-I, HMG box (Salpingoeca helianthica)
Technique: Spec-seq
Form: double-stranded DNA, one strand shown
Medium: in vitro
Concentration: not given
Setting: whole probe, mean of replicates
Relative to: not given
Reading: lower = stronger binding
Target sequence (chain): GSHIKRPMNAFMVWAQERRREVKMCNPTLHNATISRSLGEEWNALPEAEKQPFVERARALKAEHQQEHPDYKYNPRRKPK
| Strand | relative binding energy |
| --- | --- |
| GAGTCGTCTCGTCAGCACACCGGTTCCGTAGAGCACTCAGGTC | 0.00363 ln ratio |
| GAGTCGTCTCGTCAGCACAAGCGTTCCGTAGAGCACTCAGGTC | 0.185 ln ratio |
| GAGTCGTCTCGTCAGCACTCGAGTTCCGTAGAGCACTCAGGTC | 1.11 ln ratio |
| GAGTCGTCTCGTCAGCACCATGGTTCCGTAGAGCACTCAGGTC | 0.754 ln ratio |

Sample 2
Target: Max-binding protein MNT, bHLH-zipper, MAX partner unstated (MNT, Homo sapiens, UniProt Q99583, residues 220-300)
Technique: protein-binding microarray
Form: double-stranded DNA, one strand shown
Medium: in vitro
Concentration: not given
Setting: k-mer, scored over probes, only values ≥0.25
Reading: higher = stronger binding
Residues (chain): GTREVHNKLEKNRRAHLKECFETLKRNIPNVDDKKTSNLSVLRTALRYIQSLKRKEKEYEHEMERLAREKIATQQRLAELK
| Strand | E-score |
| --- | --- |
| CACGCTCC | 0.364 |
| ATGCGCCC | 0.282 |
| CATGGGGA | 0.366 |
| CATGGTCG | 0.347 |
| ACGAGGTG | 0.304 |

Sample 3
Target: Histone acetyltransferase KAT6A, both winged helices, GST fusion (KAT6A, Homo sapiens, UniProt Q92794, residues 1-181)
Technique: protein binding microarray
Form: double-stranded DNA, one strand shown
Medium: in vitro
Concentration: not given
Setting: 8-mer, flanks averaged, mean of 2 arrays, mostly near background
Relative to: not given
Reading: higher = stronger binding
Residues (chain): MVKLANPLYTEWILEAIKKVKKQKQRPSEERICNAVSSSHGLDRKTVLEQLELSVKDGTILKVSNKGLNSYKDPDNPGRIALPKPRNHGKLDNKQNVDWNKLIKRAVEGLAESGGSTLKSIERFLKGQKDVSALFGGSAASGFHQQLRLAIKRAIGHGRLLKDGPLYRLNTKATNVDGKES
| Strand | E-score |
| --- | --- |
| AAATCCAG | -0.236 |
| AGCATCTA | -0.08 |
| GATGCGCC | 0.232 |
| AAACTTTG | 0.117 |

Mixed results
| Molecule | target | assay | test system | setting | scale | quantity | result |
| --- | --- | --- | --- | --- | --- | --- | --- |
| PhoQ, residues 284 288 289 292 302 303 QWGLFV | PhoP, residues 12 14 15 18 19 LYHSL (Escherichia coli, UniProt P23836) | Sort-seq, item: YFP reporter | E. coli | PhoQ-PhoP variant library, added: 10 µM Mg2+ | relative to: high Mg2+ state, higher = stronger signaling | fold induction | 36.1 |

A few entries again (mixed results):
| Molecule | target | assay | test system | setting | scale | quantity | result |
| --- | --- | --- | --- | --- | --- | --- | --- |
| PhoQ, residues 284 288 289 292 302 303 QWGLFV | PhoP, residues 12 14 15 18 19 LYHSL (Escherichia coli, UniProt P23836) | Sort-seq, item: YFP reporter | E. coli | PhoQ-PhoP variant library, added: 10 µM Mg2+ | relative to: high Mg2+ state, higher = stronger signaling | fold induction | 36.1 |
